Measurements from different studies.
Each line is one published result; not all experiments were run side by side. Values joined by “and” are separate records of one study, mostly repeats; a detail may differ. ± gives the spread as reported.
SLC6A9: Sodium- and chloride-dependent glycine transporter 1 (SLC6A9, Homo sapiens, UniProt P48067)
Gria2/Glutamate receptor 3: Gria2/Glutamate receptor 3 (Rattus norvegicus, UniProt P19491+P19492)
PPO3: PPO3 (Agaricus bisporus, UniProt C7FF04)

For `CCCCOc1ccc(C(=O)OCC[N+]2(C)CC=CCC2)cc1` (stereo not drawn), the basal binding was 0.88 ± 0.03 fold (Muscarinic acetylcholine receptor M1 (CHRM1, Homo sapiens, UniProt P11229); membranes; 100 µM, 15 h, no carbachol; reference: control).
`CCOC(=O)C1CCCN(CCCCO)C1` (stereo not drawn) gave a remaining signal of 90.5% (SLC6A9; cell-free assay; 1 µM).
For `O=C1c2sc(-c3ccc(N4CCC(F)C4)nc3F)nc2CCN1c1cccnc1` (stereo not drawn), the specific binding was 0.996 nM and 0.711 nM (TAR DNA-binding protein 43, aggregated (TARDBP, Homo sapiens, UniProt Q13148); radioligand binding; human, FTLD-TDP type B sarkosyl-insoluble extract; 13.55 nM).
`Cn1c(=O)n(C2CCC(=O)NC2=O)c2ccc(C3CCN(CC(=O)Nc4cccc(CS(=O)(=O)N5CC[C@H](Nc6cccc(-c7sc(C(=O)O)c(OCC(=O)O)c7Cl)c6)CC5(C)C)c4)CC3)cc21` (stereo partly drawn) gave a remaining protein of 0.5% and 0.7% (Tyrosine-protein phosphatase non-receptor type 1 (Mus musculus, UniProt P35821); degrader, Western blot; B16-F10; 10 µM).
The fibril diameter of `CCCCCCCCCCCCCCCC(=O)OCC(CSC[C@H](N)C(=O)N[C@@H](CO)C(=O)N[C@@H](CCCCN)C(=O)N[C@@H](CCCCN)C(=O)N[C@@H](CCCCN)C(=O)N[C@@H](CCCCN)C(=O)NCCCCCC(=O)N[C@@H](CCCCN)C(=O)N[C@@H](CC(C)C)C(=O)N[C@H](C(=O)N[C@@H](Cc1ccccc1)C(=O)N[C@@H](Cc1ccccc1)C(=O)N[C@@H](Cc1ccc2ccccc2c1)C(=O)O)C(C)C)OC(=O)CCCCCCCCCCCCCCC` (stereo partly drawn) is reported as 16 nm (Amyloid-beta precursor protein, fibrillar amyloid-beta (APP, Homo sapiens, UniProt P05067); TEM; 2.0 eq, 28 h, fibril 3, together with: APP 20 µM).
The ΔTm of `CC(C)C[C@@H]1NC(=O)CN(C)C(=O)[C@H](Cc2c[nH]c3ccccc23)NC(=O)[C@H](CCC(=O)O)NC(=O)[C@H](Cc2ccccc2)N(C)C(=O)[C@H](Cc2ccccc2)NC(=O)CSC[C@@H](C(N)=O)NC(=O)[C@H](CCCCN)NC(=O)[C@H](C(C)C)NC(=O)[C@H](Cc2ccc(O)cc2)NC(=O)[C@H](Cc2ccc(O)cc2)NC(=O)[C@H](C(C)C)NC(=O)[C@H](Cc2ccccc2)N(C)C(=O)[C@H](CCCNC(=N)N)NC1=O` is reported as 7 °C (AT-rich interactive domain-containing protein 1B (ARID1B, Homo sapiens, UniProt Q8NFD5, E2199R); differential scanning fluorimetry; 5 µM, E2116R mutant).
`O=C(O)Cc1cc2c(cc1C(=O)c1ccc(Cl)cc1Cl)OCO2` has a current amplitude of 54 ± 3 pA (Gria2/Glutamate receptor 3; glutamate-evoked current, whole-cell patch clamp; HEK-293T; concentration not given).
`CC1=NN(C)C(=O)C1=NOC(=O)c1ccc(Cl)cc1` has an inhibition of 74% (Ubiquitin carboxyl-terminal hydrolase 14 (USP14, Homo sapiens, UniProt P54578); enzyme activity, inhibitor; 17 µM).
The activity ratio of `O=C(N1CCCC1)n1cc(-c2ccc(-c3ccccc3)cc2)nn1` is reported as 0.55 (Monoacylglycerol lipase ABHD6 (Abhd6, Mus musculus, UniProt Q8R2Y0); enzyme activity, inhibitor, competitive ABPP-SILAC; mouse T-cells; concentration not given, 4 h, treated in situ; reference: DMSO).
For `CCCCCCCO[C@H]1[C@H](OC)O[C@H](CO)[C@@H](O)[C@H](O)[C@@H]1O`, the -TΔS was -1.05 kcal/mol (Type 1 fimbrin D-mannose specific adhesin, lectin domain (fimH, Escherichia coli K-12, UniProt P08191); binding, isothermal titration calorimetry; 25 °C, global fit of two titrations).
`C=CC(=O)N1CCCC(n2c(=O)c3ncccc3n(Cc3ccc(Oc4ccccc4)cc3)c2=O)C1` (stereo not drawn) — result for “melting temperature shift”: -2.96 (Protein phosphatase 1 regulatory subunit 7 (Homo sapiens, UniProt Q15435); thermal proteome profiling, item: PPP1R7; unit not given; reference: vehicle).
`CC[C@H](C)[C@@H]1NC(=O)[C@H](Cc2ccccc2)NC(=O)[C@H](CCC(=O)O)NC(=O)[C@H](CCCNC(=N)N)NC(=O)CNC(=O)[C@@H](NC(=O)[C@H](CC(C)C)NC(=O)[C@H](CCCNC(=N)N)NC(=O)[C@@H](NC(=O)CNC(=O)[C@H](Cc2ccc(O)cc2)NC(=O)[C@@H]2CCCN2C(=O)[C@H](C)NC(=O)[C@H](C)NC(=O)[C@@H](N)CCCNC(=N)N)C(C)C)CSSC[C@@H]2NC(=O)[C@@H](NC(=O)[C@H](CO)NC(=O)[C@H](CO)NC(=O)[C@H](CO)NC(=O)[C@H](CC(C)C)NC(=O)CNC(=O)[C@H](C)NC(=O)[C@H](CC(C)C)NC(=O)[C@@H](NC(=O)[C@@H](N)CC(=O)O)C(C)C)CSSC[C@H](NC(=O)CNC(=O)[C@H](Cc3c[nH]c4ccccc34)NC(=O)[C@H](CCCCN)NC2=O)C(=O)N[C@@H](CO)C(=O)N[C@@H](CCCCN)C(=O)N[C@@H](CO)C(=O)N[C@@H](CCC(=O)O)C(=O)N[C@@H]([C@@H](C)CC)C(=O)N[C@@H](CO)C(=O)N[C@@H](CO)C(=O)N[C@@H](CC(C)C)C(=O)N[C@H](C(=O)O)CSSC[C@@H](C(=O)NCC(=O)NCC(=O)N[C@@H](CO)C(=O)N[C@@H](CCCNC(=N)N)C(=O)N[C@@H](Cc2c[nH]c3ccccc23)C(=O)O)NC(=O)[C@H]([C@@H](C)O)NC(=O)[C@H](Cc2ccccc2)NC(=O)[C@H]([C@@H](C)CC)NC(=O)[C@H](C(C)C)NC(=O)[C@H](C)NC(=O)[C@H](CCCNC(=N)N)NC1=O` gave a cAMP accumulation of -5.13% and -3.18% and -3.59% (Relaxin-3 receptor 1 (RXFP3, Homo sapiens, UniProt Q9NSD7); agonist; 125 nM, wild-type receptor).
`OC[C@H]1O[C@@H](Oc2cc3c(O)cc(O)cc3[o+]c2-c2cc(O)c(O)c(O)c2)[C@H](O)[C@@H](O)[C@H]1O` — result for “number of binding sites”: 1.26 (PPO3; fluorescence quenching; concentration not given, 318 K).
For `C=CC(=O)N1C[C@H](C)N(c2nc(OC[C@@]34CCCN3C[C@H](F)C4)nc3c(F)c(-c4ccc(F)c5sc(N)c(C#N)c45)c(C(F)(F)F)cc23)C[C@H]1C`, “dissociation rate constant” read 0.608 ± 0.094 s⁻¹ (GTPase KRas, GppNHp-bound (KRAS, Homo sapiens, UniProt P01116, G12V); binding).
Under “desensitization time constant”, `O=C(O)Cc1cc2c(cc1C(=O)c1ccccc1Cl)OCO2` is recorded as 1 ± 0.1 ms (Gria2/Glutamate receptor 3; glutamate-evoked current, whole-cell patch clamp; HEK-293T; concentration not given, weighted tau, 500 ms pulse, together with: glutamate).
`CCCCCC(O)/C=C/C=O` (stereo not drawn): “probe labelling ratio” 0.62 (Eukaryotic translation initiation factor 3 subunit B (Homo sapiens, UniProt P55884); acylphosphate-ATP probe SILAC-ABPP, item: EIF3B; ZAK-transfected HEK293T; 100 µM, together with: acylphosphate-ATP probe; reference: DMSO over compound-treated).
With `CC(C)Oc1cc(Cl)ccc1CNc1cc(-c2ccccc2)nc2ncnn12` the cAMP luminescence was 25200 a.u. and 25500 a.u. and 27900 a.u. and 35000 a.u. (G-protein coupled receptor 3 (GPR3, Homo sapiens, UniProt P46089, V155A); cAMP level, cAMP GloSensor; 100 pM; higher = more cAMP).
With `CCOC(=O)c1ccc(C(OCCN2CCCC(C(=O)OCC)C2)(c2ccc(OC)cc2)c2ccc(OC)cc2)cc1` (stereo not drawn) the remaining signal was 91.8% (SLC6A9; cell-free assay; 1 µM).
`CC[C@H](C)[C@H](NC(=O)[C@@H](NC(=O)[C@@H](NC(=O)[C@@H](NC(=O)[C@H](CCCNC(=N)N)NC(=O)[C@H](CCC(=O)O)NC(=O)[C@H](CCC(=O)O)NC(=O)[C@H](C)NC(=O)[C@H](CCC(=O)O)NC(=O)CNC(=O)[C@H](C)NC(=O)CN)C(C)C)C(C)C)C(C)C)C(=O)N[C@@H](CO)C(=O)N[C@@H](CO)C(=O)N[C@@H](CO)C(=O)N[C@@H](CCC(=O)O)C(=O)N[C@@H](CC(=O)O)C(=O)N[C@@H](CO)C(=O)N[C@@H](CC(=O)O)C(=O)N[C@@H](C)C(=O)N[C@@H](CCC(=O)O)C(=O)N[C@@H](CC(N)=O)C(=O)N[C@@H](CO)C(=O)N[C@@H](CO)C(=O)N[C@@H](CO)C(=O)N[C@@H](CCCNC(=N)N)C(=O)N[C@@H](Cc1ccc(O)cc1)C(=O)O` gave a ΔG of -5.75 ± 0.05 kcal/mol (Small ubiquitin-related modifier 1, residues 17-97 (Homo sapiens, UniProt P63165, C52A); binding, ITC; pH 7.4, 298.15 K, N-terminally truncated protein).
The current amplitude of `O=C(O)Cc1cc2c(cc1C(=O)c1cccc(I)c1)OCO2` is reported as 152 ± 15 pA (Gria2/Glutamate receptor 3; glutamate-evoked current, whole-cell patch clamp; HEK-293T; concentration not given).
For `O=c1[nH]c2cccnc2n1-c1ccc2c(c1)OC1(CCCCC1)O2`, the potentiation was 139% (Voltage-gated potassium channel KCNC1 (KCNC1, Homo sapiens, UniProt P48547); potassium current, activator, automated patch clamp; HEK293 expressing Kv3.1; 33 µM).
`O=C(NC[C@@H](Cc1ccc(F)cc1)N1CCC(O)(C(F)(F)F)CC1)C1(c2ccc(Cl)cc2)CCCC1`: “EC50 fold change” 2.2 (Transient receptor potential cation channel subfamily A member 1 (TRPA1, Homo sapiens, UniProt O75762, I905A); calcium influx, agonist; reference: I905A mutant over wild type).
With `Cc1ccccc1-c1cc(CN2c3ccccc3C=Cc3ccccc32)on1` the apparent Km was 5.47 mM (PPO3; enzyme activity, inhibitor; concentration not given).
For `COC(=O)[C@@]1(C)C=C(C(=O)Nc2cccc(C(=O)Nc3ccc(Nc4nccc(-c5cccnc5)n4)c(C)c3)c2)C(=O)CC1`, the remaining activity was 1.06 and 1.23 and 0.96 (Mitogen-activated protein kinase 14 (MAPK14, Homo sapiens, UniProt Q16539); enzyme activity, inhibitor; 0.1829 µM, unit not given; reference: vehicle).
`COc1cc(Nc2nc(C)cc(-c3cnn4nc(OC)ccc34)n2)cc(C(F)(F)F)c1` has a remaining activity of 71% (Phosphatidylinositol 4,5-bisphosphate 3-kinase catalytic subunit alpha isoform (PIK3CA, Homo sapiens, UniProt P42336, E545K); inhibitor; 1 µM; reference: control).
For `COc1ccc(C(OCCN2CCCC(C(=O)O)C2)(c2ccc(CO)cc2)c2ccc(OC)cc2)cc1` (stereo not drawn), the remaining signal was 78.1% (SLC6A9; cell-free assay; 1 µM).
The BRETmax of `CCCC[C@H](NC(=O)[C@H](CCC(N)=O)NC(=O)[C@H](CCC(=O)O)NC(=O)[C@@H]1CCCN1C(=O)[C@@H](NC(=O)[C@H](C)NC(=O)[C@H](CC(N)=O)NC(=O)[C@H](CC(=O)O)NC(=O)CNC(=O)[C@@H]1CCCN1C(=O)[C@H](Cc1ccc(O)cc1)NC(=O)[C@@H](NC(=O)[C@@H]1CCCN1C(=O)[C@H](CCC(=O)O)NC(=O)[C@H](CC(C)C)NC(=O)[C@@H]1CCCN1C(=O)[C@H](C)N)C(C)C)[C@@H](C)O)C(=O)N[C@@H](C)C(=O)N[C@@H](CCC(N)=O)C(=O)N[C@@H](Cc1ccc(O)cc1)C(=O)N[C@@H](C)C(=O)N[C@@H](CCCCNC(=O)c1ccc2c(c1)C(=O)OC21c2ccc(N(C)C)cc2Oc2cc(N(C)C)ccc21)C(=O)N[C@@H](CC(=O)O)C(=O)N[C@@H](CC(C)C)C(=O)N[C@@H](CCCNC(=N)N)C(=O)N[C@@H](CCCNC(=N)N)C(=O)N[C@@H](Cc1ccc(O)cc1)C(=O)N[C@H](C(=O)N[C@@H](CC(N)=O)C(=O)N[C@@H](CCCC)C(=O)N[C@@H](CC(C)C)C(=O)N[C@H](C(=O)N[C@@H](CCCNC(=N)N)C(=O)N1CCC[C@H]1C(=O)N[C@@H](CCCNC(=N)N)C(=O)N[C@@H](Cc1ccc(O)cc1)C(N)=O)[C@@H](C)O)[C@@H](C)CC` is reported as 0.048 ± 0.0007 (Neuropeptide Y receptor type 4 (NPY4R, Homo sapiens, UniProt P50391, H188A); NanoBRET binding; Nluc-tagged receptor H188A, unit not given; net BRET ratio).

For quick reference, copied from above:
For `O=c1[nH]c2cccnc2n1-c1ccc2c(c1)OC1(CCCCC1)O2`, the potentiation was 139% (Voltage-gated potassium channel KCNC1 (KCNC1, Homo sapiens, UniProt P48547); potassium current, activator, automated patch clamp; HEK293 expressing Kv3.1; 33 µM).
`O=C(NC[C@@H](Cc1ccc(F)cc1)N1CCC(O)(C(F)(F)F)CC1)C1(c2ccc(Cl)cc2)CCCC1`: “EC50 fold change” 2.2 (Transient receptor potential cation channel subfamily A member 1 (TRPA1, Homo sapiens, UniProt O75762, I905A); calcium influx, agonist; reference: I905A mutant over wild type).
With `Cc1ccccc1-c1cc(CN2c3ccccc3C=Cc3ccccc32)on1` the apparent Km was 5.47 mM (PPO3; enzyme activity, inhibitor; concentration not given).
